Assay results collected from several papers.
Parts stem from different laboratories: compare values within a part only. Substitutions count along the parent as printed.
UniProt Q8LAL2, sequence (whole entry, looked up): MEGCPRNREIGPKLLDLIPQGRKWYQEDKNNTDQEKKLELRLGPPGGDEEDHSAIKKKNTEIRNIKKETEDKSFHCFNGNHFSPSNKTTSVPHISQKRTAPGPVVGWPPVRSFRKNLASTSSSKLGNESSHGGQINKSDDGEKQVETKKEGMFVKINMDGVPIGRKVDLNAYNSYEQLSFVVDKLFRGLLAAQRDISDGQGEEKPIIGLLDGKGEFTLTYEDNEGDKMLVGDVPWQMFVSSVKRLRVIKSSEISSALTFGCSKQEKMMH
UniProt Q9FX25, sequence (whole entry, looked up): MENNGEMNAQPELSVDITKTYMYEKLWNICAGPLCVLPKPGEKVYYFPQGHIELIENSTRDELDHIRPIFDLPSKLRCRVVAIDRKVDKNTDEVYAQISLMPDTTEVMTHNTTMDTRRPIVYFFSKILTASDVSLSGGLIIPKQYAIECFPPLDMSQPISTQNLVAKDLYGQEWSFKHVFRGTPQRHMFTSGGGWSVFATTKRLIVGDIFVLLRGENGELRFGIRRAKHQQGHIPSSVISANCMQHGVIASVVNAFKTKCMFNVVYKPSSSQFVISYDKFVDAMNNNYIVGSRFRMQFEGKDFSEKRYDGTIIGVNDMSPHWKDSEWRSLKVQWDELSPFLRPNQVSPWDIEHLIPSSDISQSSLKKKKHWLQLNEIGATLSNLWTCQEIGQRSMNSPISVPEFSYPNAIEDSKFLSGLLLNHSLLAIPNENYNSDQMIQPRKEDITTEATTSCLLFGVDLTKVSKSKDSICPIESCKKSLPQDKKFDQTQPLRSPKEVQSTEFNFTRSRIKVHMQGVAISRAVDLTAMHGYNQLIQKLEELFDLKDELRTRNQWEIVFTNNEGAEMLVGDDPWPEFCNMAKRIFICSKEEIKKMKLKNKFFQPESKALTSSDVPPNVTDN
UniProt Q9ZSY8, sequence (whole entry, looked up): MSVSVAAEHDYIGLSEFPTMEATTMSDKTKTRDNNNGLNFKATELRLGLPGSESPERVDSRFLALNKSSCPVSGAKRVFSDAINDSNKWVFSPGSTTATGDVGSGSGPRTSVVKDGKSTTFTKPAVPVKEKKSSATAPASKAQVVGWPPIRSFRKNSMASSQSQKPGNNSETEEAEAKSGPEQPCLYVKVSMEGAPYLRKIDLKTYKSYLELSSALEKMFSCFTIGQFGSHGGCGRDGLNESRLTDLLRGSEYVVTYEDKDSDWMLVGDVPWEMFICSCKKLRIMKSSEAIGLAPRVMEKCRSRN
UniProt O23661, sequence (whole entry, looked up): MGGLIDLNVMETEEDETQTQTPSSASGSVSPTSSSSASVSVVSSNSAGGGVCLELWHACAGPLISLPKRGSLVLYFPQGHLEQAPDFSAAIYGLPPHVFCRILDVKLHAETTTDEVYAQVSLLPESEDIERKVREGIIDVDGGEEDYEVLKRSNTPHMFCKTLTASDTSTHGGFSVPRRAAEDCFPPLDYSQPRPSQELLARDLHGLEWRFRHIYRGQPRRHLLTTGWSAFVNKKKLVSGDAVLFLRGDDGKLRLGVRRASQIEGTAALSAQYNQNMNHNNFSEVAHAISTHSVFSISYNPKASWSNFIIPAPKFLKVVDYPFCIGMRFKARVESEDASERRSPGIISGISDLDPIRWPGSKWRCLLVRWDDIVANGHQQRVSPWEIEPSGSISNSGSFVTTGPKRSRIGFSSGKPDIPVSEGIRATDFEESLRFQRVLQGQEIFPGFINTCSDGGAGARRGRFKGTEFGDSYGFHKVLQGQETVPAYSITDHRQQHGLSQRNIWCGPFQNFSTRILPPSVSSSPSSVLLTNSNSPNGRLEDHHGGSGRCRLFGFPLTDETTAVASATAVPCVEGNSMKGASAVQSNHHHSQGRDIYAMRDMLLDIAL

Study 1
Target: Sal-like protein 4, full length isoform A (SALL4, Homo sapiens, UniProt Q9UJQ4, residues 1-1053)
UniProt Q9UJQ4, sequence (whole entry, looked up): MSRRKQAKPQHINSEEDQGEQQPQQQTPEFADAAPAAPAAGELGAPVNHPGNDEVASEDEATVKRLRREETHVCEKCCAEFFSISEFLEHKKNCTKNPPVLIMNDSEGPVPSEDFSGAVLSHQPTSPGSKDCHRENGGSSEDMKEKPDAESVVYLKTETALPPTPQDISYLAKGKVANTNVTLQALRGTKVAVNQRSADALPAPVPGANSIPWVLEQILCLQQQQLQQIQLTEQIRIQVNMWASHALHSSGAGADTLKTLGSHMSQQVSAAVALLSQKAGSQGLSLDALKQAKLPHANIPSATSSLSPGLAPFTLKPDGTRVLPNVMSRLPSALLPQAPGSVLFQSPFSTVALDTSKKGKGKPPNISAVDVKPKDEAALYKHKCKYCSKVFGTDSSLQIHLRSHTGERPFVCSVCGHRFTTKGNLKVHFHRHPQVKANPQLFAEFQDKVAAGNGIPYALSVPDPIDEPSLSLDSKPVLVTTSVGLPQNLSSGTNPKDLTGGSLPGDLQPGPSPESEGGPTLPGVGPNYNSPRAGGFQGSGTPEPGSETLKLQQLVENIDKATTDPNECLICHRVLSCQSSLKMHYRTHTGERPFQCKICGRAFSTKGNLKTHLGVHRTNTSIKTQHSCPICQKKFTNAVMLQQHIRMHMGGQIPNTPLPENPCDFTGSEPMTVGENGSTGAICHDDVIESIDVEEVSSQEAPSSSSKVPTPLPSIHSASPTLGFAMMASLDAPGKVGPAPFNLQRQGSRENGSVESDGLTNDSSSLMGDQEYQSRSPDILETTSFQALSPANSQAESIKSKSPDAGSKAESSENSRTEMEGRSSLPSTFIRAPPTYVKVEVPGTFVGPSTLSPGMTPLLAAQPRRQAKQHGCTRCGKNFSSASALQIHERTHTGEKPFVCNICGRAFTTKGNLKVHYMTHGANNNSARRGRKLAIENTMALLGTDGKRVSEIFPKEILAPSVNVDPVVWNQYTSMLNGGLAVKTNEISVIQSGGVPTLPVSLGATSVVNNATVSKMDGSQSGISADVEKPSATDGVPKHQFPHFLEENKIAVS
Method: universal PBM
Form: double-stranded DNA, one strand shown
Sample: in vitro
Tested at: 600 nM
Notes: 8-mer, flanks averaged, mean of replicates
Direction: higher = stronger binding
Sequence	E-score
CTAGAACA	0.0657
CACGCCCA	-0.269
CAGCAAAG	0.0295
AAGTCATG	0.0852
TCCCAAAA	0.117
ACCCATTG	-0.032
CTGGTTGA	-0.175
GTAGGTCA	-0.181

Study 2
Partner: ARF19 948-1086 (Arabidopsis thaliana, UniProt Q8RYC8)
Method: two-hybrid
Baseline: out of 4 tests
Direction: higher = firmer interaction
Residues (chain): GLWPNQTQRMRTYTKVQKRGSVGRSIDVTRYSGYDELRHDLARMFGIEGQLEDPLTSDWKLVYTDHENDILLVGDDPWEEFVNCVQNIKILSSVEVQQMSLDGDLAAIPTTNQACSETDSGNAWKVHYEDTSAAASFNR
Substance	positive tests
ETT (Arabidopsis thaliana, UniProt O23661)	0
IAA27 (Arabidopsis thaliana, UniProt Q9ZSY8)	1
IAA26 (Arabidopsis thaliana, UniProt Q8LAL2)	1
ARF13 (Arabidopsis thaliana, UniProt Q9FX25)	0

Study 3
Target: RING finger protein unkempt homolog, zinc fingers 1-6, SBP tag (UNK, Homo sapiens, UniProt Q9C0B0, residues 30-357)
UniProt Q9C0B0, sequence (30-357, looked up): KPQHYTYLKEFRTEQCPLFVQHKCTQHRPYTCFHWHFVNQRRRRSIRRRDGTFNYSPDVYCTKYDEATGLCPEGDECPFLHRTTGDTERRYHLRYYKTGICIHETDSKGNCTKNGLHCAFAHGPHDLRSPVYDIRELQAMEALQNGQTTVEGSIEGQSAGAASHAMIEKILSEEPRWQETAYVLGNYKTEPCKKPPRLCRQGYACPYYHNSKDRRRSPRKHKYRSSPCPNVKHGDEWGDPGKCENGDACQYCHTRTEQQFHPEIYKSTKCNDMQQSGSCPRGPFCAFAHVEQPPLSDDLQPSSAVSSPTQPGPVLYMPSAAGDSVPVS
Method: RNA Bind-n-Seq
Form: RNA
Sample: in vitro
Tested at: 100 nM
Notes: RNA with constant flanks, vertebrate orthologous sites, ends assumed
Baseline: input RNA pool
Direction: higher = stronger binding
Constant ends, left off below: GGGAGUUCUACAGUCCGACGAUC … CAACAGAGGAUUGAGCAUCA
Sequence	bound/input enrichment [ratio]
CAGUCAUGGAGAAAAAUAUAUUAAAAUAAUUUCAUGGCACUGAUGUUAAUUCUAGUCUAUUAGUUUUAUAAAAGUUAGGGUUCUUAUUUAGGAACAACAGGAAGUGACUGUUAAGGAGAA	2.71
UUAAAUAUGUAUCAGAUGCUGGAUGUAACAUUGAACCAUCAUUUUAUAAUAGAUGUUAAUUUGUUAUAAUUAAGCUACAAAUAGGUUUCUUUAAACCAGAGAUACACUGCCCUUGUCUGA	0.195
ACAUCAUGGGUUACUCUCAUUUCUGUAGCAGAUAGAACAUUUUGCAAAACAUGUAUACACCUGGCUAAGCUGAAUAUAUUUUUAUUAGCCUGUAAAUAAAUAUACUCUUCUGCAUUGCAC	0.375
CUCUCUUAGCGAUAGUAUUCCAUCCGUAGCAGAUUCUCACUCGAGUCAUUUUUCUGAGUUCAGUUGCUCAGAUAUGGAAAGUAUGAAAACUUCCUGUAGCCACGGUUCCAGCGACUAUCA	1.79
AGAAAACUUUAACCGUGAAUCUGAAGGUAGAAAUACAGGUCCAUGGUUAUCUUCCUCGCUUAGAAAUAGAUGCACACCUUUGUUCUCUAGAAGGAGAAGAGAGGGAAGAGAUGAAUCUUC	0.754
CUCUAUGGGCCUCGCAGAGUUGAAAUAAUGGAAGAGGAAAGUGAAUAGUGAUCUUCAUUUUAGUAUUUAUGCUUAGAUGUGAAAAUAAAUGUUAUUUGUUGAUUAUUUCUAUAAUCCAGA	0.685
CUCCUAGCAUCAUACCAGCAUCUUCGCUAUCAGACGUGCACAGCUUACAAAGGAACAGUCUAGUGGUAUUGGUUAUUUUCAUUUCAAAACCUGCUUUUUUUUCCCAAGACUGAAAAAAGA	0.857
CGCCUCCGGUGACAUUUGGCCUGGCCUGUCGGCCUACGACAAUAGUCCCAGAUCACCCCACAGUCCUUCUAUCGCCACACCGCCUAGCCAGAGUUCCUCCUGCUCCGACGCGCCUUUACU	0.662

Further values, each from its own experiment
Parent: viral docking peptide; TSVRRALFTGGSD
Substitution	target	assay	system	setting	scale	endpoint	value
V3N	CCNF, cyclin fold, Cln2 fusion (human)	yeast growth competition, sequencing	yeast	strong parent motif	baseline: not given, higher = stronger binding	normalised enrichment score	0.437
